Measurements of several laboratories.
Protocols differ between the studies behind these lines. Values joined by “and” are separate records of one study, mostly repeats; a detail may differ.
Target: cAMP-dependent protein kinase catalytic subunit PRKX (PRKX, Homo sapiens, UniProt P51817)
Sequence (P51817 1-358, as in one of the studies): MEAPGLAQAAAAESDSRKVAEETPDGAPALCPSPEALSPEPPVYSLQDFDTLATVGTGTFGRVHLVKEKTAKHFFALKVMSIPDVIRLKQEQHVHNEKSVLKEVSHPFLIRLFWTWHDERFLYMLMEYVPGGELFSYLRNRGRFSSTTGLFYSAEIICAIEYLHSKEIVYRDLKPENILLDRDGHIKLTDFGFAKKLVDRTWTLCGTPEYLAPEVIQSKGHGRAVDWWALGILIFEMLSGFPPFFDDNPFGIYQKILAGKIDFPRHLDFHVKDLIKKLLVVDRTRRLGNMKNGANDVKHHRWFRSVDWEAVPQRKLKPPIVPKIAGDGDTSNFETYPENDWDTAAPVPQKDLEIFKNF

For `COc1ccc(NC(=O)Nc2ccc3c(c2)C(=O)N(C(C)CO)CC(C)C(CN(C)Cc2ccc4c(c2)OCO4)O3)cc1` (stereo not shown), the remaining activity was 99% (kinase activity, KinaseProfiler; 0.03 µM, species human; reference: control).
`Cc1cccc(O[C@H]2CCC[C@@H](C(C)CNCc3ccncc3)C2)c1` (relative stereo) has an inhibition of 0% (enzyme activity, inhibitor; 10 µM).
The inhibition of `C=CC(=O)Nc1cccc(-c2cnc3[nH]cc(C(=O)NC(C)(C)C)c3n2)c1` is reported as 3% (enzyme activity, inhibitor; 0.1 µM).
With `Nc1ncc2c(n1)-c1c([nH]c3ccc(C4=CCOCC4)cc13)CCC2` the remaining binding was 98% (binding, competition with immobilised ligand; 1 µM).
For `COc1c(OCCCN2CCOCC2)ccc2c1N=C(NC(=O)c1cnc(N)nc1)N1CCN=C21`, the remaining activity was 118% (kinase activity, inhibitor; 1 µM; reference: untreated control).
Under “activity vs control”, `O=C(Cc1ccc(OCc2ccccc2)cc1)NC1(C(=O)O)CCN(C(=O)c2ccc(-c3cccc(Cl)c3)cc2)CC1` is recorded as 113% (enzyme activity, inhibitor; 10 µM).
With `CC(C)=CC1OC(C)(C)C2C=C3C(=O)C(Cl)=CC(O)C3C3C(O)C4OC4C(=O)C132` (stereo not shown) the remaining binding was 93% (cell-free assay, competition with immobilised ligand; 10 µM).
For `COC(=O)[C@@]1(C)C=C(C(=O)Nc2cccc(C(=O)Nc3ccc(Nc4nccc(-c5cccnc5)n4)c(C)c3)c2)C(=O)CC1`, the remaining activity was 102% (enzyme activity, inhibitor, radiometric; 1 µM).
For `NC(=O)C[C@H]1CCc2sc3ncnc(O[C@H]4CC[C@H](N5CCOCC5)CC4)c3c21`, the inhibition was 0% (enzyme activity, inhibitor; 10 µM).
The remaining binding of `COc1cc(Nc2nccc(-c3cnn4nc(OC)ccc34)n2)cc(C(F)(F)F)c1` is reported as 100% (binding, competition with immobilised ligand; 1 µM).
`Cc1c[nH]c2nccc(-c3ccc(C(=O)N[C@@H]4c5c(F)cc(C(F)F)cc5C[C@@H]4O)cn3)c12` has a remaining binding of 0% (binding, competition with immobilised ligand; 3 µM).
`CNC(=O)C[C@H](Cc1ccc(C#N)cc1)NC(=O)c1cc(-c2ccc(CN[C@H](C)c3ccc(C)cc3)o2)ccc1Cl` — result for “activity vs control”: 100% (enzyme activity, inhibitor; 1 µM).
`CN1CC[C@@H](COc2cnc(C#N)cc2-c2ccn3nc(NC(=O)C4CC4)cc3c2)C1` has an inhibition of 14% (enzyme activity, inhibitor; 1 µM).
The remaining activity of `Nc1ncc(-c2cc(-c3cnn(CC(F)(F)F)c3)ncc2F)nc1C(=O)NC1CNCC(F)C1` (stereo not shown) is reported as 91.1% (enzyme activity; 1 µM; reference: DMSO control).
The remaining activity of `COCC12C(=O)NC3C4(C(OC)CC1O)C1CC5(O)C(OC)C(O)C(OC(C)=O)(C1C5OC(=O)c1ccccc1)C3(O)C(OC)C24` (stereo not shown) is reported as 101% and 100% (kinase activity, inhibitor, ProQinase kinase profiling; 25 µM; reference: control).
`O=C=[N][Ru-4]123([n]4c5ccc(O)cc5c5c6c(c7cc(F)c[n+]1c7c54)C(=O)NC6=O)[S+]1CC[S+]2CC[S+]3CC1` (stereo not shown) gave a remaining activity of 66% (enzyme activity; 100 nM, human enzyme, with: 10 µM ATP; reference: untreated).

For quick reference, copied from above:
With `Nc1ncc2c(n1)-c1c([nH]c3ccc(C4=CCOCC4)cc13)CCC2` the remaining binding was 98% (binding, competition with immobilised ligand; 1 µM).
For `COc1c(OCCCN2CCOCC2)ccc2c1N=C(NC(=O)c1cnc(N)nc1)N1CCN=C21`, the remaining activity was 118% (kinase activity, inhibitor; 1 µM; reference: untreated control).
